Results gathered from unrelated publications.
A part holds a random share of what one study measured.

Sample 1 — method: protein-binding microarray; form: double-stranded DNA, one strand shown; sample: in vitro; concentration: 940 nM top; setting: 60-bp whole probe; together with: salmon DNA 0.4 mg/ml; reference: random background probes; reading: higher = stronger binding; measurement: fitted relative affinity; all sequences stand within: GCCTAGCAC … GTCTTGATTCGCTTGACGCTGCTG
Target: Interferon regulatory factor 5, full length, phosphomimetic (IRF5, Homo sapiens, UniProt Q13568-2, residues 1-514, S451D/S453D/S456D/S462D)
Sequence = GACGGTATCGGGTTTCGTGACGTGCTA; value = 4.62 z-score
Sequence = TCACCCTTTGCTTTCCTACTGTGCTAG; value = 1.34 z-score
Sequence = TTAGGACTGCTTCTCCGTTAGTGCTAG; value = -0.279 z-score
Sequence = GACGGTTTCGACACTGGGGACGTGCTA; value = 7.34 z-score
Sequence = TCATGTCCCTGTTTCTAACTGTGCTAG; value = 0.908 z-score
Sequence = GACGGTATCCTTATGCTGACGTGCTAG; value = -0.0139 z-score
Sequence = TTAGGTATCGGTTTTCGGTTAGTGCTA; value = 8.53 z-score
Sequence = TTAGATTTCCGGTTTCGATTAGTGCTA; value = 6.68 z-score
Sequence = GACGGACTGTGTTTCGGGACGTGCTAG; value = 0.402 z-score
Sequence = TTAGGTCTCGGTCTCGCTTAGTGCTAG; value = 5.09 z-score
Sequence = GACGGTATCGGTATCGCGACGTGCTAG; value = 8.58 z-score
Sequence = GACGGTTTCCTACTTCTGACGTGCTAG; value = 1.07 z-score
Sequence = GACGGACTTGACACTGGGGACGTGCTA; value = -0.403 z-score
Sequence = GACGGTTACGGTATCGGGACGTGCTAG; value = 1.76 z-score
Sequence = TTAGGACTGGGTACCGGTTAGTGCTAG; value = -0.428 z-score
Sequence = TTAGATTTCGGGACTGGACTAGTGCTA; value = 0.353 z-score
Sequence = TTAGTTTTCGGTCTCGGTTAGTGCTAG; value = 6.13 z-score
Sequence = GACGGTTTCGACTATAGGGACGTGCTA; value = 8.28 z-score
Sequence = TCAGTTCTGCTTTGCCTACTGTGCTAG; value = 0.0391 z-score

Sample 2 — method: RNA Bind-n-Seq; form: RNA; sample: in vitro; concentration: 365 nM; reference: no-protein control; reading: higher = stronger binding; measurement: RBNS enrichment (R)
Target: RNA binding protein fox-1 homolog 2, RRM domain, GST-SBP tag (RBFOX2, Homo sapiens, UniProt O43251-10, residues 100-194)
Setting: natural RNA segment, single round, ends assumed
Construct (chain): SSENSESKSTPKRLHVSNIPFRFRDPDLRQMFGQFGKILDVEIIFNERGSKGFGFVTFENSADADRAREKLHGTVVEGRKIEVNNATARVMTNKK
Sequence = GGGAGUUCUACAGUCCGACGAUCGGCUCCGAGGCUGGGGGAUCUGCUUGGAGUUUUCUGCCCCCCACCCCAAACUUCUGUCGAGGAGCAAGGCUUGCCAGCAAGUCAGAAGGAUUUGAACCGAGCAGCCAAUCUGGAAUUCUCGGGUGCCAA; value = 0.474
Sequence = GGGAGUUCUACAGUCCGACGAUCCAGCCAAUAAGAUAAUAGCAGAAUUAGCCAAUCCUAAAACCUUCUAAAGACGAUUUUUGAGCAUCCCACUGGGAUUAUUUAAUUUUUCUUUUUGACGUGUGUUUUUAGUUUGGAAUUCUCGGGUGCCAA; value = 1.05
Sequence = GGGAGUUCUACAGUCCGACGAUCAGAUGUUAAGUGUAACAGAUAAUUGGAGCUACGAGCCAUUCAGCUUCAGCCUUUCCAGACCACACACGAGACAUUAACCAUCCCAUGGAGAAGUUUACAUGGUGACUGUUUGGAAUUCUCGGGUGCCAA; value = 0.24
Sequence = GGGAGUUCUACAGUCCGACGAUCGUGAGCAACUCUGUGGCUAGCAAAAGAGAAGUUUAUUUGUGCCCAGCCAUUGGUCACCUUGGGUGAUGCACCAGAUAGCAGGCAGAUGUUGGUUCAUUGGCCUUCGUCCUUGGAAUUCUCGGGUGCCAA; value = 0.26
Sequence = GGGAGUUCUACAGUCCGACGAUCAGAAUUCCCUAGAGACCUCUUGGGGGGCAACGGGCAGGCUGCAUCUCCCAGGAAACCAGGCAAGGGCCCGCCAUCCUAGUGAGGCAGGCCACCGCACCUUUCCACUUCUCUGGAAUUCUCGGGUGCCAA; value = 0.374
Sequence = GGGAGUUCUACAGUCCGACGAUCUAAAGAAAGCAAAAGUUAAUUCAACUGAUCCACCAAUGGAAUUAGAUGGGUAGAGUUGGGUUCUUGAGUUUUACCACCACUUAGUUCCCACUGAAUUUUGUAACUUCCUGUGGAAUUCUCGGGUGCCAA; value = 0.446
Sequence = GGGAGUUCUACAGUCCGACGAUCAUUUUAGGUGUAAUUAUGACCUGGCUAUUAUUUUCAUUUGGAAAUUAAGCAUGGCAUAAGAAGAUAUGAUUGUGUGUCAAGGUGACAAGGGGUGAACUUCAGAUGGCUCUUGGAAUUCUCGGGUGCCAA; value = 0.407
Sequence = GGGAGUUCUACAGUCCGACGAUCAUUACCAUUGAAAAAGAAGUUCCUUUGAGCAUGUAUGUGUCUGCCUCUAGGAUGAGCUCAGAGCGAGAGAUGACACAAUGCCUCACUCAGGCCCCGGGCUCCCUGGCCACUGGAAUUCUCGGGUGCCAA; value = 3.21
Sequence = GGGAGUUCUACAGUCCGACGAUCGCAUUUUCUUCCCUAAAACCAACAGUGUCCCACUGACCUCCCCAAGUGUUUGCUGCGUGGCAGAUUUCCUGUUCUUGUUCGCAGUUUGCCGACUGAAGAGUGUGGGAUUUUGGAAUUCUCGGGUGCCAA; value = 1.23
Sequence = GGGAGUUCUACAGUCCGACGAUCACUUUUAAGCUUCUAAAUUGAUCAUUUAAACUAUUUCUUUAAAUAAGAGAGCCAAAUUAGAGGCUCAUACUUUAGCUUGUGAAGAAGAUAAUGAAUUUUUUAAAGGGAACUGGAAUUCUCGGGUGCCAA; value = 1.48
Sequence = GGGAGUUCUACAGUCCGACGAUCCAAGAUGAAAUCUCAAUAAAUUAUUUUUGAGUUUAUUAAAGAUUGACAUUUUAAGUACAACUUUUAAGGACUAAUUACUGUGAUGGACACAGAAAUGUAGCUGUGUUCUGUGGAAUUCUCGGGUGCCAA; value = 0.469
Sequence = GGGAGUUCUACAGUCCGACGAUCCACUUGAUUCCAAGUGUGGUUGAAUUGUCUGGAGCACUGGGACUUUUUUUCUCUUUUCCUUGAUGGACCAACAGUGCAAAUGCAAUCUCGCCAUUUAACUUUCAGGUCGAUGGAAUUCUCGGGUGCCAA; value = 0.351

Sample 3 — method: RNA Bind-n-Seq; form: RNA; sample: in vitro; concentration: 200 nM; setting: whole 134-nt RNA, ends assumed; together with: 150 mM LiCl; reference: input library; reading: higher = stronger binding; measurement: log2 enrichment; each molecule: 7-deaza-guanosine replaces G
Target: Ras GTPase-activating protein-binding protein 1, full length (G3BP1, Homo sapiens, UniProt Q13283)
UniProt Q13283, sequence (whole entry, looked up): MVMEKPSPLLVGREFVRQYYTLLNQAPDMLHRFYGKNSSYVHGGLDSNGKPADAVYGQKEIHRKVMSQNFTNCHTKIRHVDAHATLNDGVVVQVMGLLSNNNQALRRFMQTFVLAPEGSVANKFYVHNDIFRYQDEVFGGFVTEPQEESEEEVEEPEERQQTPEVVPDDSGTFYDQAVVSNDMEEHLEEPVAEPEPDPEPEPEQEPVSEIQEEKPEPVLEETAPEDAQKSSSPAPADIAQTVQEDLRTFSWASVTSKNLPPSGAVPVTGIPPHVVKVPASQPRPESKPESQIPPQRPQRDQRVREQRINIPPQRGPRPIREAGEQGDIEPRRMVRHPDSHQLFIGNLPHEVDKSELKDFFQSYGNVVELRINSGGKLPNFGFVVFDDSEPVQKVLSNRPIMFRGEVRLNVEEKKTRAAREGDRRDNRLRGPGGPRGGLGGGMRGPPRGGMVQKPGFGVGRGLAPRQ
Sequence = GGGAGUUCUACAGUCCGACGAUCUGGGAGGUGGAUUUUGUUUAUUUUUUUAGCUCAUUUCCAGGGGUGGGAAUUUUUUUUUAAUAUGUGUCAUGAAUAAAGUUGUUUUUGGAAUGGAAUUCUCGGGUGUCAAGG; value = -0.733
Sequence = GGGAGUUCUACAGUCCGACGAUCGAGCAAAGAGCCAUUCAGCUUCAGUCUUUACAUACCAUGAAUAAAACAUUAAAACAUCAUAUGGAGAAGUUUACAUGGUGAUUGUUCACCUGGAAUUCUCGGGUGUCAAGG; value = 0.0572
Sequence = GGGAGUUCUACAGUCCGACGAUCUGGCCCUGGUGGCAUGCGGGGAGGAAGAGGCGGCCUCAUGGAUCGUGGUGGUCCCGGUGGAAUGUUCAGAGGUGGCCGUGGUGGAGACAGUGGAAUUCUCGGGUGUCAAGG; value = 0.0449
Sequence = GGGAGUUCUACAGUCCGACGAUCUCAAGUCCUGUGCUACACAUCGUAUGUACCGAAUCGGUUUUGGUUUUGGUUUUGGAAAGUAUUAUGUUACGCCGUUCGGAUCUGCACUUCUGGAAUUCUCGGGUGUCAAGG; value = -0.736
Sequence = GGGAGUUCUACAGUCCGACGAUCGCCAUGCAGGUGGGCAUCUUUGGGAAGUGGGGCAAGGGGGGGAUAGGGAGGGGGGUAACACUUUGGGAACAGGUGGUCCCAGGUCGUUUCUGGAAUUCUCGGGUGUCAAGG; value = 0.106
Sequence = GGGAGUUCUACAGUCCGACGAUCUGGGAGGUGGAUUUUGUUUAUUUUUUUAGCUCAUUUCCAGGGGUAGGAAUUUUUUUUUAAUAUGUGUCAUGAAUAAAGUUGUUUUUGAAAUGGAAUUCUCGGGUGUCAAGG; value = -0.948
Sequence = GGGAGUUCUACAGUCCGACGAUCCAAGUCCUGUGCUACACAUCGUAUGUACCGAAUCGGUUUGGAAAGGUUUUUUUGGAAAGUAUUAUGUUACGCCGUUCGGAUCUGCACUUCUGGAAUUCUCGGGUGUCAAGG; value = -0.824
Sequence = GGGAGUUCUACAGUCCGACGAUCCCUGUGCUACACAUCGUAUGUACCGAAUCGGGGAAAAAAAGGAAAAAAAGGAAAAAAAGGGAAAGUAUUAUGUUACGCCGUUCGGAUCUGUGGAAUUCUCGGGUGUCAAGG; value = 0.0229
Sequence = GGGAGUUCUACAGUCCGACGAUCCUGUGCUACACAUCGUAUGUACCGAAUCGGGGUUUUUUUGGUUUUUUUGGGUUUUUUUGGGGAAAGUAUUAUGUUACGCCGUUCGGAUCUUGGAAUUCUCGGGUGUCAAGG; value = 1.2
Sequence = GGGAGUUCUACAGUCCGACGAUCGGUGCGGCUCUAUGAGUGGACAACAGAGAAGGAGCUGCGCACUGAGUGCAACCACUACAACAACAUCAUGGCCCUCUACCUGAAGACCAAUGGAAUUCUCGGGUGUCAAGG; value = -0.599
Sequence = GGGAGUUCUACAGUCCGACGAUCCACAGACAACACGCACCCACACAGACACAGAGGGCAGGGGUUGGGAUGGGGACAGGGUGCACAGCAGGGCGGGGUAGGACCCCAGCCCCUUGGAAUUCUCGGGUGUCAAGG; value = -0.667

Sample 4 — method: RNA Bind-n-Seq; form: RNA; sample: in vitro; concentration: 20 nM; setting: 6-mer, flanks averaged, single round; together with: 150 mM KCl; reference: input library; reading: higher = stronger binding; measurement: 6-mer enrichment (R)
Target: TAR DNA-binding protein 43, full length, His tag (TARDBP, Homo sapiens, UniProt Q13148, residues 1-414)
Sequence = GCAUCA; value = 0.685
Sequence = ACCAUA; value = 0.623
Sequence = CGACAC; value = 0.728
Sequence = AUGUCC; value = 0.629
Sequence = GCUAUG; value = 0.891
Sequence = UGAGCG; value = 1.55
Sequence = UAAAGU; value = 0.657
Sequence = UCUCAC; value = 0.545
Sequence = CCAUGA; value = 0.667
Sequence = AAGAAC; value = 0.762
Sequence = CUGAGA; value = 0.797
Sequence = AACGGA; value = 0.86
Sequence = UCUUUG; value = 0.63
Sequence = CUAUCG; value = 0.608
Sequence = UGCACA; value = 0.71
Sequence = CCUCGG; value = 0.871
Sequence = AACAAA; value = 0.734
Sequence = CGUCCC; value = 0.682
Sequence = UCUGAU; value = 0.568
Sequence = ACCCCC; value = 0.671
Sequence = UCUUAG; value = 0.601
Sequence = UUUCGC; value = 0.593
Sequence = GCUAAA; value = 0.72
Sequence = CAAAAU; value = 0.631

Repeated from above (sample 1):
Sequence = GACGGTTACGGTATCGGGACGTGCTAG; value = 1.76 z-score
Sequence = TTAGGACTGGGTACCGGTTAGTGCTAG; value = -0.428 z-score
Sequence = TTAGATTTCGGGACTGGACTAGTGCTA; value = 0.353 z-score
Sequence = TTAGTTTTCGGTCTCGGTTAGTGCTAG; value = 6.13 z-score
